Experimental data collected from several papers.
Compare with care: the assays were run in different laboratories. Numbers after ± are the reported error.

| SMILES | test | system | setting | Tmax |
| --- | --- | --- | --- | --- |
| COc1ccc2c(c1)[C@]13CCCC[C@@H]1[C@H](C2)N(C)CC3 |  | Wistar rat, both sexes, plasma | oral, 5 mg/kg, 2 h after pretreatment, together with: single quinidine 2.5 mg/kg | 25.8 ± 13.8 min |
| NC1(c2ccccc2Cl)CCCCC1=O (racemic) |  | male Wistar rats, plasma | intraperitoneal, 40 mg/kg once daily for 14 days, day 14 | 34.8 ± 27.6 min |
| CN1CC[C@@]23CCCC[C@@H]2[C@@H]1Cc1ccc(O)cc13 |  | Wistar rat, both sexes, plasma | oral, 5 mg/kg DEM, DEM 2 h after pretreatment, together with: TCE 100 mg/kg single pretreatment | 28.2 ± 13.2 min |
| O=C(CC(=O)c1ccccc1)c1ccccc1 |  | Sprague-Dawley rat, male, plasma | oral, 10 mg/kg, regular emulsion | 120 ± 81 min |
| CCCC(=O)OCSc1ccccc1C(=O)NCCC(N)=O |  | Sprague-Dawley rat, male, plasma | intravenous, 50 mg/kg, first sampling time | 1.98 min |
| O=c1nc(NO)ccn1[C@@H]1O[C@H](CO)[C@@H](O)[C@H]1O | microdialysis | rat, pregnant female, blood | intravenous, 100 mg/kg of molnupiravir, together with: NBMPR 10 mg/kg i.v. | 43 ± 3 min |
| Cc1cccc(C)c1OCC(=O)N[C@@H](Cc1ccccc1)[C@@H](O)C[C@H](Cc1ccccc1)NC(=O)[C@H](C(C)C)N1CCCNC1=O |  | male Sprague-Dawley rats, plasma | oral, 160 mg/kg, alone | 360 min |
| CNC(=O)c1ccc(-c2cnn3ccc(C(=O)N(C)c4ccc(Cl)c(C(=O)OC)c4)cc23)cc1 |  | Wistar rats, both sexes, plasma | oral, 50 mg/kg/day, day 1 | 30 min |

For quick reference, copied from above:
| SMILES | test | system | setting | Tmax |
| --- | --- | --- | --- | --- |
| COc1ccc2c(c1)[C@]13CCCC[C@@H]1[C@H](C2)N(C)CC3 |  | Wistar rat, both sexes, plasma | oral, 5 mg/kg, 2 h after pretreatment, together with: single quinidine 2.5 mg/kg | 25.8 ± 13.8 min |
